Assay results collected from several papers.
Every numbered part comes from another study and shows a few of its results, in no order. Changes are numbered by the printed parent chain.
Chain of UniProt Q13705 (whole entry, looked up): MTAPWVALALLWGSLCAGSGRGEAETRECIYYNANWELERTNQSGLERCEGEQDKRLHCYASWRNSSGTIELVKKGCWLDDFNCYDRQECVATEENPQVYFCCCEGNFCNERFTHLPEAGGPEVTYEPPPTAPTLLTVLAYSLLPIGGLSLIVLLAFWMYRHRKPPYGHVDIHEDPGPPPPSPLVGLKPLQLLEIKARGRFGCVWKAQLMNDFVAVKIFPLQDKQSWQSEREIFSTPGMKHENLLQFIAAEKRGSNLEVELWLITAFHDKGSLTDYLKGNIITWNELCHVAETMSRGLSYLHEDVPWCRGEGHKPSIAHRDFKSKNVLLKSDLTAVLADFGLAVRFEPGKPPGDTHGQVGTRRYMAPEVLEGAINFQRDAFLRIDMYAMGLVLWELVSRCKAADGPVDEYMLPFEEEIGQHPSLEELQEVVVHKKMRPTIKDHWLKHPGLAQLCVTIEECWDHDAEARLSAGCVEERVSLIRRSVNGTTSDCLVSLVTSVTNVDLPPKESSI
Chain of UniProt O15264 (whole entry, looked up): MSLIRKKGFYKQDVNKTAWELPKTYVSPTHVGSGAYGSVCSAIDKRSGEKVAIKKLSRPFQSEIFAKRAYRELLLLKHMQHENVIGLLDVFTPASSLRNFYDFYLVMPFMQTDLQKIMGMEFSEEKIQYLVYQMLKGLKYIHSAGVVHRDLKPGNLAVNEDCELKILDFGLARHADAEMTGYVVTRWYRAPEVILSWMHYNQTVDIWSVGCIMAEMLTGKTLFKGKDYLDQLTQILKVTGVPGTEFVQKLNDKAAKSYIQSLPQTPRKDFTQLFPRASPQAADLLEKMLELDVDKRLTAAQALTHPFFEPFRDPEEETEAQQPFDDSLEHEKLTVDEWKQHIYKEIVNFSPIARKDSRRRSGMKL

Series 1 — target: FOSB, bZIP domain (human); technique: DHFR protein complementation; matrix: yeast; relative to: wild-type JUN-FOS pair; direction: higher = stronger binding
Setting: single substitutions, most at no-binding floor
Starting sequence: JUN, bZIP domain (human); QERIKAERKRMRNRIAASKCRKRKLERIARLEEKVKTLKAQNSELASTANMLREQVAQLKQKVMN; partner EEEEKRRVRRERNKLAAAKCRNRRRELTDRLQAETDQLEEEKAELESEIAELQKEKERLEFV
Substitution	binding fitness
L31A	-0.186 natural log
E44K	-0.0354 natural log
T48R	0.048 natural log
A46T	-0.0313 natural log
L31Q	-0.323 natural log
K36I	-0.121 natural log
I28R	-0.168 natural log
E33M	-0.161 natural log

Series 2 — technique: EMSA with sequencing; molecule type: double-stranded DNA, one strand shown; matrix: in vitro; concentration: 10 and 20 nM; relative to: negative control set to 0; direction: higher = stronger binding
Target: Hepatocyte nuclear factor 3-alpha (Foxa1, Mus musculus, UniProt P35582, residues 1-468, full length assumed)
Setting: whole designed probe, mean of two concentrations, ends assumed
Constant ends, left off below: GTGAGCGGTGCCCATTGATGGGGAAC … TTTCACTGGGATCGTGGGGAC
Construct (chain): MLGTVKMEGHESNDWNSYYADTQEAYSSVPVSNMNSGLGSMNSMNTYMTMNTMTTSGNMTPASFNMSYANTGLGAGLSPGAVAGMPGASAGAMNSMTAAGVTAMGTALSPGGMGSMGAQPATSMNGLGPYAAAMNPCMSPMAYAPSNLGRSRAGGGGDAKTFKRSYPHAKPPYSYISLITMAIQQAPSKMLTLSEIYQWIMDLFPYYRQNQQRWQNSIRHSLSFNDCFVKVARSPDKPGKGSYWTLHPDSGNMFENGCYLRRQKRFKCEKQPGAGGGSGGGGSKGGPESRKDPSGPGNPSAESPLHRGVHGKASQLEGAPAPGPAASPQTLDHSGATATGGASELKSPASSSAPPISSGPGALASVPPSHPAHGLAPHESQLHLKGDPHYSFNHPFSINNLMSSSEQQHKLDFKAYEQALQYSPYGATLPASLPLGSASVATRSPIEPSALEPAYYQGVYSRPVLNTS
Oligonucleotide	normalised bound fraction [ratio]
ATCTTCCCCCTCTTCCTTGCCCCACCAGCTCACCTTCCCGGGTTATTTGCACAAAGGAAAATAAATAAAGCCGGCATTCGTTAACCCTCTTCACGCGCATACTGCTGTTTGCTCTGCATGAATCATGGTCCTTACGCGAGGCGTGGCTCCGGGAGAGCAAAGCACCGTGTCAGGCGCATGATCCGGGGTGGCC	0.378
TCGCCTGCTTTGGAGACGTGGCTGGCGGTGCTGCAGTGGCCTCAGTGAGCGTAAGGTTGACTGGAAGTAGGTTTCTAATTGTCTAATGCTGTTGTTTACTTTGAGTGCATGTTGTGGGGGTTGGGGAGACGCTGGTCGGCAGGCCACCTGCTACAGCCCCAGCTCACGTGTGTGTTGTGAAGGAGCGCTGCAC	0.44
ATCTTCCCCCTCTTCCTTGCCCCACCAGCTCACCTTCCCGGGTTGTTTACTTTGAGCAAAGTAAACAAAGCCGGCATTCGTTAACCCTCTTCACGCGCATACTGCACATTGGTCTGGATGAATCATGGTCCTTTGGCGACGCCAGGCTCCGGGAGAGCAAAGCACCGTGTCAGGGCCATGATCCGGGGTGGCC	0.532
ATCTTCCCCCTCTTCCTTGCCCCACCAGCTCACCTTCCCGGGTATCTGCAAATAAGCAAAGTAAACAAAGCCGGCATTCGTTAACCCTCTTCTGGCGCAAACTGCTGTTTGCTCTGGATGAATCATGGTCCTTTGGCGACGCCAGGCTCCGGGAGAGCAAAGCACCGTGTCAGGGCCATGATCCGGGGTGGCC	0.496
TTTATGCTTTGTTTGAATAACAAGAATGGAGGAGATAAGGGGAACAACTGTACTTCCTAATGGTTAGTCCACAAAAAGCCATTAGCATTCACTGTAAACAGCATTCATCAATGTGCTGTCTTAGGTCAGGATCAACTTCCTTATCTAAACTTGAGAAGGGACTGCCCTTTTTTCTCTATCTCACTTATAATAC	0.281
ACTATCATCCATTTTCAGAAAGAAAAATTTATGTAATGATAATGATAACCAAGGAATTATAACTAGCGGATAAAGTGAAAGTTCAGATGTCAAAGTAAACAGAGACTTCTTTGAGTTGATGTAATTCCTGAGAAAAAAATCATTTTACTATATAATAGAGATTATATAACAACTTTAATTTTCATCACAAGAG	0.386
TGGAAACCTGTAAGTATCTTATGTGGAGAGACTAAGCGAAGAAACATTCTTTCTAAAATGAATCACATATTAACATAAAAAATCCCATTTTTCTTGTTTACTTTGAAGGCTACCTCTCAAAAATGTAACATGCAGCCGCTGGCATCTTTGCATCTTTGAACTCACTATTCCTTTTTCAAGCAGTCTGAGTTGA	0.326
GAAAAGTGCAAAGCGTTGGCATCTGGGTCCTTCGTGAAGCTGTGTGATTCTGGACTTTGGACTGTAGTCCACTGTAGCCTGCCTTCTCACTGTGTAAATACATAACTACATGGGCTCCCGTGAGCTTGCCACACGCCACAGGCTATGCCTAATTCTACAAAGCCTGAAGGAAAAATACTGTGAAAAATACTTA	0.379

Other studies, line by line — action: inhibitor
Structure (SMILES)	target	assay	test system	conditions	scale	quantity	value
CN1CCN(CCOc2cc(OC3CCOCC3)c3c(Nc4c(Cl)ccc5c4OCO5)ncnc3c2)CC1	ACVR2B (Homo sapiens, UniProt Q13705)	Hsp90 client interaction, LUMIER	human cells	medium client		EC50	5 µM
CN1CCN(c2ccc3nc(-c4c(N)c5c(F)cccc5[nH]c4=O)[nH]c3c2)CC1	MAPK13 (Homo sapiens, UniProt O15264)	enzyme activity		0.5 µM	relative to: control	remaining activity	90.4%
